Measured values of several laboratories.
Lines come from different studies, so protocols differ. Values joined by “and” are separate records of one study, mostly repeats; a detail may differ. ± marks the error that the study gave.
Cell line: RAW264.7

| Structure (SMILES) | assay | setting | IC50 |
| --- | --- | --- | --- |
| Cc1c(-c2ccc(O)cc2)nn(-c2ccc(O)cc2)c1-c1ccc(OCCN2CCCCC2)cc1 | TNF-alpha production, inhibitor | together with: CpG-DNA | 2.11 ± 0.64 µM |
| Cc1ccc(-c2cc(C(F)(F)F)nn2-c2ccc(S(N)(=O)=O)cc2)cc1 | NO release, inhibitor, Griess | LPS-stimulated | 16.5 µM |
| CC(C)=CCC/C(C)=C/Cc1c(O)cc(/C=C/c2ccc(O)cc2O)cc1O | NO release, inhibitor | LPS-stimulated | 4.8 µg/mL |
| CC(C)(C)OC(=O)n1c(-c2ccccc2)cc2ccccc21 | NO release, inhibitor, Griess | LPS-stimulated | 34.2 µM |
| Oc1cccc(CCc2ccccc2)c1 | NO release, inhibitor | LPS-stimulated | 19.5 µg/mL |
| O=C(CSc1nnc(-c2ccc(NC(=O)c3cccnc3)cc2)o1)Nc1ccccc1Cl | TNF-α release, inhibitor, ELISA | LPS-stimulated | 10.3 µM |
| CC(=O)CC(=O)C1CCCC1=O (centres unmarked) | cell viability, CCK-8 | 48 h, together with: LPS 1 µg/mL | 2.91 ± 0.24 µM |
| Cc1ccc(C=Nn2c(-c3ccc(NC(=O)c4cccnc4)cc3)n[nH]c2=S)cc1 | NO release, inhibitor, Griess | LPS-stimulated | 47.2 µM |
| Oc1ccc(/C=C/c2cccc(O)c2)cc1 | NO release, inhibitor | LPS-stimulated | 10.3 µg/mL |
| c1ccc(-c2cc3ccccc3[nH]2)cc1 | NO release, inhibitor, Griess | LPS-stimulated | < 50 µM and 38.1 µM |
| CC(C)/C=C/c1c(O)cc(/C=C/c2ccc(O)c(O)c2)cc1O | NO release, inhibitor | LPS-stimulated | 1.9 µg/mL |
| O=c1c(O)c(-c2ccccc2)oc2cc3ccccc3cc12 | cytotoxicity, MTT | visible light, added BSA | 22.4 µM and 22 µM |
| Nn1c(SCC(=O)Nc2ccccc2Cl)nnc1-c1ccc(NC(=O)c2cccnc2)cc1 | IL-6 release, inhibitor, ELISA | LPS-stimulated | 5.61 µM |
| COc1cc(OC)cc(-c2cc3ccccc3[nH]2)c1 | NO release, inhibitor, Griess | LPS-stimulated | 29.6 µM |
| COC(=O)C1CCC(C(=O)CC(C)=O)C1=O (centres unmarked) | cell viability, CCK-8 | 48 h, together with: LPS 1 µg/mL | 1.61 ± 0.09 µM |
| C(=NOCc1ccccc1)c1c(-c2ccccc2)[nH]c2ccccc12 | NO release, inhibitor, Griess | LPS-stimulated | 34.6 µM |
| C=C1C(=O)O[C@H]2[C@H]1CC/C(C)=C/CC[C@@]1(C)O[C@@H]21 | NO release, inhibitor | LPS-stimulated | 0.42 µg/mL |
| O=C(Nc1ccc(-c2n[nH]c(=S)n2N=Cc2c[nH]c3ccccc23)cc1)c1cccnc1 | NO release, inhibitor, Griess | LPS-stimulated | 2.19 µM |
| Oc1ccc(/C=C/c2cc(O)cc(O)c2)cc1 | NO release, inhibitor | LPS-stimulated | 10 µg/mL |
| Nn1c(SCC(=O)Nc2ccc(F)cc2)nnc1-c1ccc(NC(=O)c2cccnc2)cc1 | IL-6 release, inhibitor, ELISA | LPS-stimulated | 1.66 µM |

A few entries again:
| Structure (SMILES) | assay | setting | IC50 |
| --- | --- | --- | --- |
| Cc1ccc(C=Nn2c(-c3ccc(NC(=O)c4cccnc4)cc3)n[nH]c2=S)cc1 | NO release, inhibitor, Griess | LPS-stimulated | 47.2 µM |
| Oc1ccc(/C=C/c2cccc(O)c2)cc1 | NO release, inhibitor | LPS-stimulated | 10.3 µg/mL |
